Measured values pooled from the literature.
Parts stem from different laboratories: compare values within a part only. Changes are numbered by the printed parent chain. Converted amounts (≈) assume the structure as drawn.
Chain of UniProt Q00535 (whole entry, looked up): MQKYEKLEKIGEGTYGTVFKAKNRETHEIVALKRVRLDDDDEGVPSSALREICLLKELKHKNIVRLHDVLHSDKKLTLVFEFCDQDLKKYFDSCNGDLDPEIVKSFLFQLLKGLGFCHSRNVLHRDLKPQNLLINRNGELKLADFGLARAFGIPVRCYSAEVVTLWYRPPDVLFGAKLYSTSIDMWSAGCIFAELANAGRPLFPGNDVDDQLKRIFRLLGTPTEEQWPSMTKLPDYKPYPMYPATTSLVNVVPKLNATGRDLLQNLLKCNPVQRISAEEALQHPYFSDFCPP
Chain of UniProt Q15569 (whole entry, looked up): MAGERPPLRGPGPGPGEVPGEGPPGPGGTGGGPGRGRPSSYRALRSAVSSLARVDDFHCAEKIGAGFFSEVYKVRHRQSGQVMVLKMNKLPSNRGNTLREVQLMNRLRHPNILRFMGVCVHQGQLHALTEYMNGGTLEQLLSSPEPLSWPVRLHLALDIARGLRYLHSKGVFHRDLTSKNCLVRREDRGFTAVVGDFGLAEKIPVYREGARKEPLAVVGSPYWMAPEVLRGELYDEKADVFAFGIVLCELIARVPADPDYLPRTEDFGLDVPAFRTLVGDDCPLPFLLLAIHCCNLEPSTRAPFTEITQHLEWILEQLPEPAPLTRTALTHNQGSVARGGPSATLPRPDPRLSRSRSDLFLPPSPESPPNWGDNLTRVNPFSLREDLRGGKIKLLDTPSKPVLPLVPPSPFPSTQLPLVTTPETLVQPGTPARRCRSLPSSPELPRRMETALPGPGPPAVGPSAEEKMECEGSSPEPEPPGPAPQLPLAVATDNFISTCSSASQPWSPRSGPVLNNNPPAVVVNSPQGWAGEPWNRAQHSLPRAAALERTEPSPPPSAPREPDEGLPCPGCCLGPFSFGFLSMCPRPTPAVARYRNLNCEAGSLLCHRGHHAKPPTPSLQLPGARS
Chain of UniProt P38919 (whole entry, looked up): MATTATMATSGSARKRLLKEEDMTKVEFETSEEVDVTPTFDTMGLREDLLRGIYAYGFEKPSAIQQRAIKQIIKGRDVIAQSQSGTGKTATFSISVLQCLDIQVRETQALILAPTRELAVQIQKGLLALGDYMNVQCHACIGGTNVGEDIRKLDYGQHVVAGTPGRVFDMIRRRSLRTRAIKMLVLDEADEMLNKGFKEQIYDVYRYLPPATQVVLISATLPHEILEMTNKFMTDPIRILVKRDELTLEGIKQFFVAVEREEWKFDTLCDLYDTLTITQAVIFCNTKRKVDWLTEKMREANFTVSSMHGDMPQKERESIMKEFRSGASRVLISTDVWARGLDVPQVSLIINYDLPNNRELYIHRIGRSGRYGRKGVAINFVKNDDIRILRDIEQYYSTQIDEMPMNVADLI
Chain of UniProt Q15208 (whole entry, looked up): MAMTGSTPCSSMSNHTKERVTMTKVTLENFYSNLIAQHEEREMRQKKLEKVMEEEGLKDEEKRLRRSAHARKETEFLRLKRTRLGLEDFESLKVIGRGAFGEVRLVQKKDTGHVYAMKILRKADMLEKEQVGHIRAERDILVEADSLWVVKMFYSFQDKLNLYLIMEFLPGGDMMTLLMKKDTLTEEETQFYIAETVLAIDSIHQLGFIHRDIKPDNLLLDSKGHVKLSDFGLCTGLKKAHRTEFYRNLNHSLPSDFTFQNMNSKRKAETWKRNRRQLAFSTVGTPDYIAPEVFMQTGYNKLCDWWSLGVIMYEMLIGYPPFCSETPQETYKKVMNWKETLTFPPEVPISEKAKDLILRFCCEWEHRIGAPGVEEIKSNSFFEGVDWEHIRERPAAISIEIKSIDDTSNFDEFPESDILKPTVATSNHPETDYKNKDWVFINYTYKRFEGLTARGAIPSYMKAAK
Chain of UniProt Q05655 (whole entry, looked up): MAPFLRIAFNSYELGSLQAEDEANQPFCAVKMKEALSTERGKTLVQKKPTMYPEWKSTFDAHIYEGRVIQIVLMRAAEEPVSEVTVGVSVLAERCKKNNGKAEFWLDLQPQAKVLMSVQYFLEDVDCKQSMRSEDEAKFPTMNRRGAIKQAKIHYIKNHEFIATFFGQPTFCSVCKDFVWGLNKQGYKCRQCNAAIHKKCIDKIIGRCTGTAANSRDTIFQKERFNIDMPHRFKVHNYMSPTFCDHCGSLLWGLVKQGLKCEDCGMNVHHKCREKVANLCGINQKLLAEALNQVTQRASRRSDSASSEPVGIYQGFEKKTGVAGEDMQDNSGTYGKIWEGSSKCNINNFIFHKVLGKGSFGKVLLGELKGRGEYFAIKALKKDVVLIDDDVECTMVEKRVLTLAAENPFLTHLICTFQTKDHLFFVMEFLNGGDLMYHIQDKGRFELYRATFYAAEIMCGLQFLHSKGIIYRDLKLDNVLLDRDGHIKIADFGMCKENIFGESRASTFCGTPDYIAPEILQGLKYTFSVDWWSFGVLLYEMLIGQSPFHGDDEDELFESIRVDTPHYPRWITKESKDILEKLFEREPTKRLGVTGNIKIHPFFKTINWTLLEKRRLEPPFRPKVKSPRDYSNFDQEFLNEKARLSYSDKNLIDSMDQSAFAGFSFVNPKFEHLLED

Set 1 — organism: Staphylococcus aureus; strain: USA300; measurement: MIC
SMILES: CCCCC[C@@H](O)CC(=O)N[C@H]1COC(=O)[C@H](CO)NC(=O)CNC(=O)[C@H]([C@@H](C)O)NC(=O)[C@H](Cc2ccccc2)NC(=O)[C@@H](Cc2c[nH]c3ccccc23)NC(=O)[C@@H]([C@H](C)O)NC(=O)[C@H](CC(N)=O)NC(=O)[C@@H]([C@H](C)O)NC(=O)[C@H](CC(C)C)NC(=O)[C@@H](Cc2c[nH]c3ccccc23)N(C)C(=O)CNC(=O)[C@H](CO)NC(=O)[C@@H](CO)NC1=O
added: menaquinone 0.5 µg/mL: 32 µg/mL (≈ 19.2 µM)
added: menaquinone 0 µg/mL: 8 µg/mL (≈ 4.79 µM)
added: ubiquinone 4 µg/mL: 8 µg/mL (≈ 4.79 µM)
added: ubiquinone 64 µg/mL: 8 µg/mL (≈ 4.79 µM)

Set 2 — target: inorganic phosphate, free oxyanion; technique: microfluidic competitive inhibition; sample: in vitro, cell-free expressed; concentration: not given; reading: lower = stronger binding; measurement: phosphate dissociation constant
Notes: derived from inhibition constants, unchanged parent 615000 nM
Starting sequence: PafA, mature enzyme, eGFP fusion (Elizabethkingia meningoseptica, UniProt Q9KJX5); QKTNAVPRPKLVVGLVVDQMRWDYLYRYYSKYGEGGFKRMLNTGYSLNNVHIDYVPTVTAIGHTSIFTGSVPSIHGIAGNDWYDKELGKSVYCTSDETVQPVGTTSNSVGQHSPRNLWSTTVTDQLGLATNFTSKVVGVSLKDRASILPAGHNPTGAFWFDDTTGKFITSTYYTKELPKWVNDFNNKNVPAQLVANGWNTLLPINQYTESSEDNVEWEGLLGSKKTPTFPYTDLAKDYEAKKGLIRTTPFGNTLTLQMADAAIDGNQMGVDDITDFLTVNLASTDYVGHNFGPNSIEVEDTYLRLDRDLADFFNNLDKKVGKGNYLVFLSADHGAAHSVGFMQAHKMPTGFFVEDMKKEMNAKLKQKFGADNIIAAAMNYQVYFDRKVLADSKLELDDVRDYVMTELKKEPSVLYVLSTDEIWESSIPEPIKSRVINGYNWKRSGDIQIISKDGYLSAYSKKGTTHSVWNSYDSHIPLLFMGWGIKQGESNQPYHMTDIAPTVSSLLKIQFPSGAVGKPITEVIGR
S146V: 416 µM
K452G: 468 µM
P114G: 575 µM
R246V: 1690 µM
N153V: 543 µM
S505V: 632 µM
L221G: 211 µM
V353G: 543 µM

Set 3 — effect on: cell-free assay; technique: competition with immobilised ligand; concentration: 1 µM; measurement: remaining binding
Structure (SMILES): Cn1cncc1[C@@](O)(COc1ccc(C#N)cc1-c1ccc(OC(F)(F)F)cc1)c1ccc(C#N)cc1
Protein kinase C delta type (PRKCD, Homo sapiens, UniProt Q05655): 100%
Cyclin-dependent kinase 5 (CDK5, Homo sapiens, UniProt Q00535): 96%
Dual specificity testis-specific protein kinase 1 (TESK1, Homo sapiens, UniProt Q15569): 92%
Serine/threonine-protein kinase 38 (STK38, Homo sapiens, UniProt Q15208): 100%

Mixed results
COC(=O)[C@H]1[C@@H](c2ccccc2)[C@]2(c3ccc(OC)cc3)Oc3cc(OC)cc(OC)c3[C@@]1(O)C2=O
fluorescence polarization change (Eukaryotic initiation factor 4A-III (Homo sapiens, UniProt P38919); RNA clamping, fluorescence polarization; concentration not given, mean of two replicates, added: FAM-labelled poly r(AG)8 RNA): 4.7 mP

A few entries again (set 3):
Protein kinase C delta type (PRKCD, Homo sapiens, UniProt Q05655): 100%
Cyclin-dependent kinase 5 (CDK5, Homo sapiens, UniProt Q00535): 96%
